Measured values from different studies.
A part holds a random share of what one study measured.

Sample 1
Target: Interferon regulatory factor 5, full length, phosphomimetic (IRF5, Homo sapiens, UniProt Q13568-2, residues 1-514, S451D/S453D/S456D/S462D)
Method: protein-binding microarray
Form: double-stranded DNA, one strand shown
Sample: in vitro
Concentration: 940 nM top
Setting: 60-bp whole probe
Added: salmon DNA 0.4 mg/ml
Reference: random background probes
Direction: higher = stronger binding
Shared flanks, not repeated: GCCTAGCAC … GTCTTGATTCGCTTGACGCTGCTG
Strand	fitted relative affinity [z-score]
TTACGTATCGGTTTCGGTTAGTGCTAG	12.2
GGATGTTGCAAATATTGCTAGGTGCTA	-0.152
TTAGAAATTTCTTTCTAATTGTGCTAG	0.0909
CATCCGTTTCTTCTAGACTTGTGCTAG	1.31
TTAGGTATCGATACTGGGTTAGTGCTA	9.56
GACGATCTCAGTCCCGAGACGTGCTAG	0.406

Sample 2
Target: Histone acetyltransferase KAT6A, winged helix 1, GST fusion (KAT6A, Homo sapiens, UniProt Q92794, residues 1-85)
Method: protein binding microarray
Form: double-stranded DNA, one strand shown
Sample: in vitro
Concentration: not given
Setting: 8-mer, flanks averaged, mean of 2 arrays, mostly near background
Reference: not given
Direction: higher = stronger binding
Residues (chain): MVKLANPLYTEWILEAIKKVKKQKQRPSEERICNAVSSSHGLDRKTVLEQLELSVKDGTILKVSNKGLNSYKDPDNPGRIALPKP
Strand	E-score
CAGACGGA	0.0983
TGAATTCA	-0.286
AGCATACA	-0.159
ATATTAAG	-0.103
GCCTAATA	0.0535

Sample 3
Target: RNA binding protein fox-1 homolog 2, RRM domain, GST-SBP tag (RBFOX2, Homo sapiens, UniProt O43251-10, residues 100-194)
Method: RNA Bind-n-Seq
Form: RNA
Sample: in vitro
Concentration: 365 nM
Setting: natural RNA segment, single round, ends assumed
Reference: no-protein control
Direction: higher = stronger binding
Shared flanks, not repeated: GGGAGUUCUACAGUCCGACGAUC … UGGAAUUCUCGGGUGCCAA
Residues (chain): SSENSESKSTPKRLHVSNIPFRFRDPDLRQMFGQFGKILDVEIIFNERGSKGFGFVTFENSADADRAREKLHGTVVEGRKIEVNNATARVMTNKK
Strand	RBNS enrichment (R)
CUGAUCCUACUACUGGAGCUUAAAAAUAACAAUUAAUGAAAAGUGUUAGAAACAAGGCUACAGUUUUAAAAUGGCUUGGUUCUGUCCUUGCAAUUGCUUUGUCGUGGCAA	0.313
AGUUUAGCAAGCAACUGAGAUUUAAGUCUCUCUGGCCCUAAGAGGUUUUUCCUCUUUGCUCCCUCCAAUCUUGAGAUUGGGUUUUGCUUUAGAGUGCAAGUAUCAUAAUU	12.3
AGUAAUUGGCCUUUCUGAGCUGAUUUUUCCAUCUUUUGUAAUUAUCUUUAUUAAAAAAUUGUACUUGAUUAUCUUUUGUCUGUUUAUUACUACAAUAUGAAGUCUUGUUU	1.13
UGGGGAAGCACUGACGGCCACUCACUCACCCUGUGCUGCUGCAAGUUUGACAGAACCACAUCACAUCGUGGAGAAGCUGGUGCAGGAGUUCCUAGAGCCCCAGGGUCAAC	0.3
AAGACCUUGGAUUUUUUUAAGUAACUUUAUAUCAGAAAUGAUACUGCAUCUUUAUAUUUUUAAAAUUGUAUUGCUGCUCAAGAAUGGUACCCUCUUGUCAAAAAGGCAUA	0.777

Mixed results
Substance	target	assay	system	setting	how to read	measurement	result
PhoQ, residues 284 288 289 292 302 303 ASTSDA	PhoP, residues 12 14 15 18 19 NQFFI (Escherichia coli, UniProt P23836)	Sort-seq, item: YFP reporter	E. coli	PhoQ-PhoP variant library, added: 10 µM Mg2+	reference: high Mg2+ state, higher = stronger signaling	fold induction	8.85

Some of these lines once more (sample 2):
Strand	E-score
AGCATACA	-0.159
